Measurements gathered from unrelated publications.
Parts stem from different laboratories: compare values within a part only.

Study 1
Target: RNA binding protein fox-1 homolog 2, RRM domain, GST-SBP tag (RBFOX2, Homo sapiens, UniProt O43251-10, residues 100-194)
Technique: RNA Bind-n-Seq
Molecule type: RNA
Sample: in vitro
Concentration: 365 nM
Notes: natural RNA segment, single round, ends assumed
Baseline: no-protein control
Reading: higher = stronger binding
Measurement: RBNS enrichment (R)
Shared flanks, not repeated: GGGAGUUCUACAGUCCGACGAUC … UGGAAUUCUCGGGUGCCAA
Residues (chain): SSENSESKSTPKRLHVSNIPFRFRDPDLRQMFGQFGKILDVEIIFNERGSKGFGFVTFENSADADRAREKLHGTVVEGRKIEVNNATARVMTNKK
CCCUCGCUUUGGCUAGAAACACAUUAACUGGUUUACUCAUUGGGAAUCCAGCAUAUUUAAGAGGUAAUCCUGUGUUUUCUGCAACAUUGAGGCAUUCAUACAGAGCUGCA: 1.26
UGCACAGGCCCCCCAGGCCUAGGUUCCCUUGGAGGCUGUGGCAAGUCCUCAAUCCUGUGUCCCAGAGGUCCCUCUGGGCCACAACCCAACCCUUCUCACUCUCCUCAGUG: 0.213
UUGGUUUGGUUCAGCAGUCAGCAGUUACAUACAUAACACAACCCGCAAGGACAGUGAAUCCGCUCCUGUUGCAGAGCAAUUUCCAAAAAGACGGCAAAGACUACUACUAU: 0.253
CAUAUUGAGAUCUGAGCCUUGGACGGGUAGGGAAGGGGUUAAGGGGAGAAAGGUUCUUUUUAGCUUUCGAUCCCUCCAAACGUGGUUGUUAACCCAUUGAAUAUACAGAU: 0.445
UGUUUUCUGAGCCCUCCGGACCUGAGACUGAGUUUUGUCUUUUUCCUUUAGCCUUAGCAGUGGGUAUGAGGUGUGCAGGGGGAGCUGGGUGGCUUCACUCCGCCCAUUCC: 0.459

Study 2
Target: RING finger protein unkempt homolog, zinc fingers 1-6, GST-SBP tag (UNK, Homo sapiens, UniProt Q9C0B0, residues 30-357)
Technique: RNA Bind-n-Seq
Molecule type: RNA
Sample: in vitro
Concentration: not given
Notes: RNA with constant flanks, ends assumed
Baseline: input RNA pool
Reading: higher = stronger binding
Measurement: bound/input enrichment
Residues (chain): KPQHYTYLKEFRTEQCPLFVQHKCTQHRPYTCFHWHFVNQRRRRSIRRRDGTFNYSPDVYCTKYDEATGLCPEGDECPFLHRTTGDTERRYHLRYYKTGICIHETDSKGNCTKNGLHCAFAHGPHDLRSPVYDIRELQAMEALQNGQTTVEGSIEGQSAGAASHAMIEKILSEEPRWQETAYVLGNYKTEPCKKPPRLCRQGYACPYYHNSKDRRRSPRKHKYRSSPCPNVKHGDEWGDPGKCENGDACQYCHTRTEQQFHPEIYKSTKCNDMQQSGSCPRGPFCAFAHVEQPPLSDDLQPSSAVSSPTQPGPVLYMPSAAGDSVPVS
GGGAGUUCUACAGUCCGACGAUCGAUCUCAUCGUGGCUGACAGUAGUCGCAAGGAAAUUCUCCAUUUUCCUAAGGGUGGGGGCUACCGUGUCCUUAUUCGAGAGGGACUUACCUGUCCGGUGGGCAUAGCCCUAACUCCUAAGCAACAGAGGAUUGAGCAUCA: 0.0994 ratio
GGGAGUUCUACAGUCCGACGAUCAAUAUCAUGCAGGUUUUUAUAUACUGCCUGGAACAACUGAGCACCAAGCCUGAUGCAGACACCGAUACUACUCAUCUUUCUGUUGAUGUUUCUUCUCCUGAUUUGUUUGGAAGCAUCCAUCAACAGAGGAUUGAGCAUCA: 0.157 ratio
GGGAGUUCUACAGUCCGACGAUCACUGAUUACAAAUCACCAUCAGCUGAUGACAAAGGGCAGCCAUCUGACCCCAGCCAAUCCCGUUUCACAGGUCUUUUGAAGAGAAUGGAACAAAGAGGUGUUAUAAAAAGGGUGACAUUACAACAGAGGAUUGAGCAUCA: 0.136 ratio
GGGAGUUCUACAGUCCGACGAUCGUGGCUGAGUACGAUGCCUAUUUUGAGGAGGUUAAACAAGAGAUCAAUCAAAGGCUGACCCUCCGUGACUUCCUGAUCAAGCCCAUUCAGAGAAUAACAAAGUACCAGCUGCUACUCAAGCAACAGAGGAUUGAGCAUCA: 0.135 ratio

Study 3
Target: Centromere-binding protein 1, full length, His-tagged (CBF1, Saccharomyces cerevisiae, UniProt P17106, residues 1-351)
UniProt P17106, sequence (whole entry, looked up): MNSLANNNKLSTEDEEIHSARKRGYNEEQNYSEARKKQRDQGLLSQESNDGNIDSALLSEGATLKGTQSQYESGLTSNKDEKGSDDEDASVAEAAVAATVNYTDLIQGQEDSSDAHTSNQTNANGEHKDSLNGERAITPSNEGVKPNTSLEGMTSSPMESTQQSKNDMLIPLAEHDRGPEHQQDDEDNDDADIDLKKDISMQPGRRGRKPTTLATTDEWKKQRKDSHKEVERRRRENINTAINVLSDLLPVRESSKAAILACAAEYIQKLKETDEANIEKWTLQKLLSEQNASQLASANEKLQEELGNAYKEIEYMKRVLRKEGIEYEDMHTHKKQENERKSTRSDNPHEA
Technique: competition protein-binding microarray
Molecule type: double-stranded DNA, one strand shown
Sample: in vitro
Concentration: 2 µM
Notes: whole 60-bp probe, lowest competitor level
Together with: Pho4 competitor, 0.05 µM
Reading: higher = stronger binding
Measurement: fluorescence intensity
Shared flanks, not repeated: … GTCTTGATTCGCTTGACGCTGCTG
GTACACACAAGGCGTCACATGAATTCTTGCCAAGTT: 324 a.u.
AAAGCGGTAATTTGGTGGGTGGGTGCAGATATCTAT: 83.2 a.u.
AGAATGCCACCAGACTTCATGACAGAAAAAGCTGCC: 70.6 a.u.
GTAATCCCAATTCACCACGTTCTTCCATGTTCAAGT: 105 a.u.
TAATGGCGGGTCAGTGACATGCGCGGACAAAATAAC: 81.9 a.u.
CGGACCCCGTCTTAGCACACGCAGACGCAGACGCAG: 52.1 a.u.
GAAGTCCTTATTCCGCACGTTGCTACCGCCGGCTTG: 84.3 a.u.

Mixed results
PhoQ, residues 284 288 289 292 302 303 AGHLVA — fold induction (PhoP, residues 12 14 15 18 19 SGWQI (Escherichia coli, UniProt P23836); Sort-seq, refers to: YFP reporter; E. coli; PhoQ-PhoP variant library, together with: 10 µM Mg2+; baseline: high Mg2+ state, higher = stronger signaling): 5.35

Excerpt of the above (study 3):
GTAATCCCAATTCACCACGTTCTTCCATGTTCAAGT: 105 a.u.
TAATGGCGGGTCAGTGACATGCGCGGACAAAATAAC: 81.9 a.u.
